Results from different studies.
Values joined by “and” are separate records of one study, mostly repeats; a detail may differ. ± gives the spread as reported.
UniProt P27361, sequence (whole entry, looked up): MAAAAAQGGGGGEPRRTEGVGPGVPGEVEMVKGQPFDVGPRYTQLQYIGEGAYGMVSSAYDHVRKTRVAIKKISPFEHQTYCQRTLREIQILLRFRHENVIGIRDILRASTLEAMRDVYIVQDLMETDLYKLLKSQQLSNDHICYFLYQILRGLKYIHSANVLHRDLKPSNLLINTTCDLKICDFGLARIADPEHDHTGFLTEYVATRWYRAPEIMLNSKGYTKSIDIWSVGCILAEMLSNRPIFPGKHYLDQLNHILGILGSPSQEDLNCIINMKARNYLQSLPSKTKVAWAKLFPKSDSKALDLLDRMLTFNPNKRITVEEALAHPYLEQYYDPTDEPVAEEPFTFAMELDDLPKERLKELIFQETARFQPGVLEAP
UniProt Q96P69, sequence (whole entry, looked up): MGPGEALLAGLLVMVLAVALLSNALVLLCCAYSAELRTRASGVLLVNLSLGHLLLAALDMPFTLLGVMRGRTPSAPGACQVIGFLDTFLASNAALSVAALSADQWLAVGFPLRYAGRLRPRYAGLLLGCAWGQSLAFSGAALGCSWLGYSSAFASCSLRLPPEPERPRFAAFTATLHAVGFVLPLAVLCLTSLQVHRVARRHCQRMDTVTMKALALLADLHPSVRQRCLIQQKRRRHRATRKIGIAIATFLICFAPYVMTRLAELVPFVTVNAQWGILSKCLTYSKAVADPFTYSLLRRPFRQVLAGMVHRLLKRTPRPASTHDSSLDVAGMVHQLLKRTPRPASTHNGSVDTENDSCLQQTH
UniProt O15164, sequence (whole entry, looked up): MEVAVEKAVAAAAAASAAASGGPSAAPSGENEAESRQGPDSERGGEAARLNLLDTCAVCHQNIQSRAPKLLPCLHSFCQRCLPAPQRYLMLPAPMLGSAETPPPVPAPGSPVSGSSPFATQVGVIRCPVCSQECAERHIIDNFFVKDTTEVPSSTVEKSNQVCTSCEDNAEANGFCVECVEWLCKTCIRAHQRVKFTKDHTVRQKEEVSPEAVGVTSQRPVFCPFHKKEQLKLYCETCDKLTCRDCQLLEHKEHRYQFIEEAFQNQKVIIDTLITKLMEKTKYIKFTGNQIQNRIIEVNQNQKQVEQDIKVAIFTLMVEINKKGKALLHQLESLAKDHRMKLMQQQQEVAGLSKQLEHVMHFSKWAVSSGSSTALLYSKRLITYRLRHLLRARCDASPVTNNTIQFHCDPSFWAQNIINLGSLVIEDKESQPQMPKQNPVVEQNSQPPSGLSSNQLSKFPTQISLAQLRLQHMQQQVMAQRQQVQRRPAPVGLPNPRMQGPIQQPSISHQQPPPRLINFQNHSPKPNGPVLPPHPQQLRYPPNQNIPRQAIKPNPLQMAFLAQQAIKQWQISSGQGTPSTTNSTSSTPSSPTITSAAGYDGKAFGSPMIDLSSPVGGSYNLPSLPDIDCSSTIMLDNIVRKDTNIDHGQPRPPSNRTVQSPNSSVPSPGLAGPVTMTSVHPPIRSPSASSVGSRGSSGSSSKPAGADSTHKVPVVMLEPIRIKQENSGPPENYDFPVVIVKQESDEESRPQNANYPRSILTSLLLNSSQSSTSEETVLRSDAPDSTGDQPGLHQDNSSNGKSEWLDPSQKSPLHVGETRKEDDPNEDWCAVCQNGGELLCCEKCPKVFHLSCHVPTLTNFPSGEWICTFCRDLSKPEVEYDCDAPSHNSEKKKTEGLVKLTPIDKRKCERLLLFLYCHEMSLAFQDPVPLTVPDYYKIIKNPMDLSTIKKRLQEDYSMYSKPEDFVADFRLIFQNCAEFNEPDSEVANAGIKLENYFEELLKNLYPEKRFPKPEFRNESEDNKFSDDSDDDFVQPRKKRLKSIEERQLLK
UniProt Q9NWT6, sequence (whole entry, looked up): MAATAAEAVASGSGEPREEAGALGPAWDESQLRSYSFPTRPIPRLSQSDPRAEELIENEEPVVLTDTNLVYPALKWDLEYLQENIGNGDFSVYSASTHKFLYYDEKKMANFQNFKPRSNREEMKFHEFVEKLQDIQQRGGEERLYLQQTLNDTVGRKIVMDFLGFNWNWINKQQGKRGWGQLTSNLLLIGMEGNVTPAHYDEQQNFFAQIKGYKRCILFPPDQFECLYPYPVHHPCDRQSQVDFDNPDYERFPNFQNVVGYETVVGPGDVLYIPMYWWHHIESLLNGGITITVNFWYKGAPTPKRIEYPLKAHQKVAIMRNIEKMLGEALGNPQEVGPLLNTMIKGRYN
UniProt Q07065, sequence (whole entry, looked up): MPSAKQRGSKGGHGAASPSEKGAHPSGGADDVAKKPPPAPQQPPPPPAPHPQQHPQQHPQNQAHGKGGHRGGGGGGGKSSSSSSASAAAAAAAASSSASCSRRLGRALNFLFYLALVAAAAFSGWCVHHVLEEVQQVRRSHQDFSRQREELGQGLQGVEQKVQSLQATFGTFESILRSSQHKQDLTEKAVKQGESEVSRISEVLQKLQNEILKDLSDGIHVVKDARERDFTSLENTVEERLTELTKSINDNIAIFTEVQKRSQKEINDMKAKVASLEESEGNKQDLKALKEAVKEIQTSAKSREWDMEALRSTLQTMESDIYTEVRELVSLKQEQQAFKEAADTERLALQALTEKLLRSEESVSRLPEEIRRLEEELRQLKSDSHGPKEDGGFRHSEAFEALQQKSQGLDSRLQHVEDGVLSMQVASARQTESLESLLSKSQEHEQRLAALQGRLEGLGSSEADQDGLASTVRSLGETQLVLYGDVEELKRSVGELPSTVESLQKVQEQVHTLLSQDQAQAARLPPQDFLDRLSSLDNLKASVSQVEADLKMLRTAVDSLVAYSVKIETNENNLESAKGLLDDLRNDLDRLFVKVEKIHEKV
UniProt P22033, sequence (whole entry, looked up): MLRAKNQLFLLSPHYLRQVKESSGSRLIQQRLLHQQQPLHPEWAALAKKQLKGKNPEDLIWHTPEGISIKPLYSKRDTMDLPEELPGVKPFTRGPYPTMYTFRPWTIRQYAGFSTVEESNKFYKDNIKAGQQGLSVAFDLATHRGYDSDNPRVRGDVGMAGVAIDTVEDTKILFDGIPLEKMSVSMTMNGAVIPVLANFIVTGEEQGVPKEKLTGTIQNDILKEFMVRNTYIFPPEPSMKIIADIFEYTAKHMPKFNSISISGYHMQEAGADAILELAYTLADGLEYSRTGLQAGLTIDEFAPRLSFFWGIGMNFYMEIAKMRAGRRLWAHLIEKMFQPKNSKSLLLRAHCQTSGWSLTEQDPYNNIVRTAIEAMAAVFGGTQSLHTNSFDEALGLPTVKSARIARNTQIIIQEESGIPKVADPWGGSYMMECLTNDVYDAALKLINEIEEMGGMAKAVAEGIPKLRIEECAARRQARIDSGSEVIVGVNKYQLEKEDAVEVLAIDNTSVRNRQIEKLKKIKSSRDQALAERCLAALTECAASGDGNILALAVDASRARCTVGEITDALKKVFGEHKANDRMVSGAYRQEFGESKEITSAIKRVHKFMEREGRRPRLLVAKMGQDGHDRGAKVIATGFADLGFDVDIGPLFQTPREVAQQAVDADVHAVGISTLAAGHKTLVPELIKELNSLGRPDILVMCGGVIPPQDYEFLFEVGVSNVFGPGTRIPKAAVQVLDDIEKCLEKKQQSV
UniProt Q969F8, sequence (whole entry, looked up): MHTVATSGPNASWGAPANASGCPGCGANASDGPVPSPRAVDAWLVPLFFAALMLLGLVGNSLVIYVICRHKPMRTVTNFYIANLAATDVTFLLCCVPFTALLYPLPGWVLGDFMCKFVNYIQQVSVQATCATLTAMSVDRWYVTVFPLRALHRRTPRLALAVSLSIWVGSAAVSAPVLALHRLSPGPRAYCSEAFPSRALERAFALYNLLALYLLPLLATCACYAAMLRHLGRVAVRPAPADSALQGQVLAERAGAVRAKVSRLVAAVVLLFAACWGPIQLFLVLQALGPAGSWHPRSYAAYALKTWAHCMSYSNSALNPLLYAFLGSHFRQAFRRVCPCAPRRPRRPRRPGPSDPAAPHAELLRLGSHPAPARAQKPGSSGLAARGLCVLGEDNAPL
UniProt P62258, sequence (whole entry, looked up): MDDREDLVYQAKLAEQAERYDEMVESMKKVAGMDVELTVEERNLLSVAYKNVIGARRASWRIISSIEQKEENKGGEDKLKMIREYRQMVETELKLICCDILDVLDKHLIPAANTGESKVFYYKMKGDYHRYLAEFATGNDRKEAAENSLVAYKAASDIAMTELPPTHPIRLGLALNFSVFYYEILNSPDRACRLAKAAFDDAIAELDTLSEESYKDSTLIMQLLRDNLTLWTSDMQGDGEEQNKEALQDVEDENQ
UniProt Q8IU85, sequence (whole entry, looked up): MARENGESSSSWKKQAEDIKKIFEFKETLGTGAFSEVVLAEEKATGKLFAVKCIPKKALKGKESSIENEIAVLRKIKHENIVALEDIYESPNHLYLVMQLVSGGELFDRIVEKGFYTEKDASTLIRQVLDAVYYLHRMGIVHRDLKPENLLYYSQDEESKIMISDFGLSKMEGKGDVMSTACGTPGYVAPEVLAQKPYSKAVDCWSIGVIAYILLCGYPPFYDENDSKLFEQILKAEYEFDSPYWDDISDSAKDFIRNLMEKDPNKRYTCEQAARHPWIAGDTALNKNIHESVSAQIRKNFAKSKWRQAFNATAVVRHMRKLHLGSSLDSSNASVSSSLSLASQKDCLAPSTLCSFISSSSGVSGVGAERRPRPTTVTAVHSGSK
UniProt Q9NVV5, sequence (whole entry, looked up): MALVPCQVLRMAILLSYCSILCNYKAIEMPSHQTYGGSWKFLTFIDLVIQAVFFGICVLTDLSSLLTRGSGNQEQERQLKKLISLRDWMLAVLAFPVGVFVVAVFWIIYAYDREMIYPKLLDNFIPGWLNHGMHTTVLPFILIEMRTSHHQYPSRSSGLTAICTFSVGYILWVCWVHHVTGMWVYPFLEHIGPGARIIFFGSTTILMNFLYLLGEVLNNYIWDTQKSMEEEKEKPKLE

| SMILES | target | assay | test system | conditions | how to read | measurement | result |
| --- | --- | --- | --- | --- | --- | --- | --- |
| Nc1ncnc2c1ncn2[C@H]1C[C@H](O)[C@@H](COP(=O)(O)OP(=O)(O)OP(=O)(O)O)O1 | Gag-Pol polyprotein, reverse transcriptase (gag-pol, Human immunodeficiency virus type 1 group M subtype B, UniProt P04585) | single nucleotide extension, substrate |  | wild type, T:A matched primer/template |  | Km | 0.0345 ± 0.00612 µM |
| CC(C)[C@@H](O)CC[C@@H](C)[C@H]1CC[C@H]2[C@@H]3CC=C4C[C@@H](O)CC[C@]4(C)[C@H]3CC[C@]12C | Glutamate NMDA receptor; GRIN1/GRIN2B (GRIN1/GRIN2B, Homo sapiens, UniProt Q05586+Q13224, L650A) | positive allosteric modulator, two-electrode voltage clamp | Xenopus oocytes expressing GluN2B-L650A | 10 µM, 0.02% cremophor, with: 100 µM glutamate and glycine | relative to: without compound | current response | 145 ± 8% |
| O=C(O)c1ccc(CN2C(=O)CN(C(=O)c3ccco3)c3cc(-c4ccccc4)c(Oc4ccc(C(=O)O)cc4)cc32)cc1 | GUCY1B1, with alpha-1 subunit (Homo sapiens, UniProt Q02153) | purified recombinant enzyme |  | 10 µM, wild-type α1/β1 | relative to: basal | sGC activity | 4.4 fold |
| O=C(O)CCC(=O)C(=O)O | HIF1AN (Homo sapiens, UniProt Q9NWT6) | substrate |  | pH 7.00, 37.0 °C, with: CTAD 100 µM |  | Km | 9 ± 2 µM |
| COc1cc(N)c(Cl)cc1C(=O)NC1CN2CCC1CC2 (centres unmarked) | G-protein coupled receptor 78 (GPR78, Homo sapiens, UniProt Q96P69) | β-arrestin recruitment, TANGO luminescence, item: GPR78 |  | concentration not given | relative to: basal luminescence | log2 fold change | 0.157 |
| Cc1cc(C)n2c1C=C1C=CC(CCC(=O)Nc3ccc(OCC(=O)N[C@@H]4C(=O)N5[C@@H]4SC(C)(C)[C@@H]5C(=O)[O-])cc3)=[N+]1[B-]2(F)F.[Na+] | Penicillin-binding protein 2a (pbp2a, Streptococcus pneumoniae, UniProt Q8DNB6) | inhibitor | whole cells | 600 nM, six slowest PBPs |  | kobs | 0.0022 s⁻¹ |
| CCN(CC)CCCC[C@H](NC(=O)[C@H](CC(C)C)NC(=O)[C@H](C)NC(=O)[C@H](Cc1ccccc1)NC(=O)c1ccc(C(C)(C)C)cc1)C(=O)N[C@@H](CO)C(=O)OC | Transcription intermediary factor 1-alpha, bromodomain (TRIM24, Homo sapiens, UniProt O15164) | thermal stabilisation, thermal shift |  | 25 µM | relative to: protein without compound, higher = stronger binding | delta Tm | 0.27 °C |
| Clc1cc2c(cc1Cl)Oc1cc(Cl)c(Cl)cc1O2 | Uncharacterized protein (Takifugu rubripes, UniProt Q4JHL4) | reporter gene, agonist, dual-luciferase | COS-7 | 0.1 µM, 28 h | relative to: DMSO | fold induction | 13.3 |
| COC(=O)[C@@]1(O)C[C@H]2O[C@]1(C)n1c3ccccc3c3c4c(c5c6ccccc6n2c5c31)C(=O)NC4 | MAPK3 (Homo sapiens, UniProt P27361) | ADP-Glo |  | 631 nM, with: MBP substrate |  | kinase activity | 10.4% and 23.2% and 19.9% |
| C/C1=C2/[N-]C([C@H](CC(N)=O)[C@@]2(C)CCC(=O)NC[C@@H](C)OP(=O)([O-])O[C@H]2[C@@H](O)[C@@H](n3cnc4cc(C)c(C)cc43)O[C@@H]2CO)[C@]2(C)N=C(/C(C)=C3N=C(/C=C4N=C1[C@@H](CCC(N)=O)C\4(C)C)[C@@H](CCC(N)=O)[C@]\3(C)CC(N)=O)[C@@H](CCC(N)=O)[C@]2(C)CC(N)=O.[CH2-][C@H]1O[C@@H](n2cnc3c(N)ncnc32)[C@@H](O)[C@@H]1O.[Co+3] | MMUT (Homo sapiens, UniProt P22033) | cofactor |  |  |  | specific activity | 67.1 ± 4.5 µmol/min/mg |
| O=C[C@H](O)COP(=O)(O)O | TPI1 (Saccharomyces cerevisiae, UniProt P00942, Y208A) | substrate, GPDH/NADH-coupled |  | pH 5.7, 25 °C |  | kcat | ~750 s⁻¹ |
| [2H]c1c([2H])c([C@]2([2H])CCCN2C(=O)C(C)(C)Oc2ccc3cn[nH]c3c2)c([2H])c([2H])c1C([2H])([2H])[2H] | CAMK1D (Homo sapiens, UniProt Q8IU85) | KINOMEscan |  | 1 µM | relative to: DMSO control | remaining binding | 84% |
| O=C(c1ccc(Cl)cc1)N1CCN2C(=O)N(OC(=O)N3CCOc4ccccc43)C(=O)C2C1 (centres unmarked) | Androgen-induced gene 1 protein (Homo sapiens, UniProt Q9NVV5) | enzyme activity, inhibitor, MS-based ABPP | SW-620 in situ | 10 µM, 2 h, 37 °C | relative to: compound over DMSO, lower = stronger inhibition | median ratio | 0.72 |
| C#CCCCCNC(=O)CI | Cytoskeleton-associated protein 4 (Homo sapiens, UniProt Q07065) | mass spectrometry profiling | Ramos cell lysate | 100 µM over 10 µM, UniProt Q07065 | relative to: high over low concentration | reactivity ratio | 1.59 |
| CC12CCC(CC1)C(C)(C)O2 | 1,8-cineole 2-endo-monooxygenase (cinA, Citrobacter braakii, UniProt Q8VQF6, Y81F) | ITC |  | 25 °C, Y81F protein |  | TΔS | 18 ± 1.06 kcal/mol |
| Nc1nc2c(ncn2[C@@H]2O[C@@H]3COP(=O)(O)O[C@@H]4[C@H](O)[C@@H](COP(=O)(O)O[C@H]3[C@H]2O)O[C@H]4n2cnc3c(N)ncnc32)c(=O)[nH]1 | CBASS effector Cap5 (Pseudomonas syringae, UniProt A0A2P0QGK5) | plasmid DNA cleavage, agarose gel |  | 20 min, with: plasmid DNA 50 nM |  | lowest concentration for DNA cleavage | 1 nM |
| COc1ccc(N2C(=O)N(c3c(C)cccc3Cl)Cc3cnc(Nc4ccc(C5CCN(C)CC5)cc4OC)nc32)nc1 | MAPK8 (Homo sapiens, UniProt P45983) | kinase activity, inhibitor |  | 0.5 µM, kinase JNK1 |  | inhibition | 8% |
| CCOC(=O)COc1ccc2c(=O)c3ccccc3oc2c1 | ache (Electrophorus electricus, UniProt O42275) | enzyme activity |  | 1.68 µM, with: substrate 1.73 mM | higher = faster reaction | reaction velocity | 0.0018 a.u. |
| CN(C(=O)n1cnc(-c2ccc[n+]([O-])c2)c1)C1CCCCC1 | CX3CR1 (Homo sapiens, UniProt P49238) | radioligand binding, inhibitor |  | 10 µM |  | inhibition | 8% |
| O=C1C(P(=O)(O)O)CC(O)N1O (centres unmarked) | enolase | NADH-linked |  | preincubated before substrate | relative to: IC80 ENO1 over IC80 ENO2 | selectivity ratio | 10 fold |
| CCCCCCCCCCCC(=O)N[C@H]1CCOC1=O | qscR (Pseudomonas aeruginosa, UniProt G3XD77) | ligand, differential scanning fluorimetry |  | ligand complex |  | melting temperature | 55.5 °C |
| CN[C@@H]1C[C@H]2O[C@@](C)([C@@H]1OC)n1c3ccccc3c3c4c(c5c6ccccc6n2c5c31)C(=O)NC4 | CDC2-like kinase 1 (Trypanosoma brucei brucei, UniProt Q382U0) | kinase activity, ADP-Glo |  | 0.3125 µM |  | remaining activity | 27.2% |
| C[C@H]1CN(c2n[nH]c3nc(N[C@H]4CC[C@H](NS(=O)(=O)CCC(F)(F)F)CC4)ncc23)CCO1 | 14-3-3 protein epsilon (Homo sapiens, UniProt P62258) | Kinobeads competition, item: YWHAE |  | 20 µM, unit not given | relative to: vehicle | remaining binding | 1.13 |
| CN1CCN(c2cc(-c3ccncc3)c(-c3ccc4ccccc4c3)nn2)CC1 | KiSS-1 receptor (KISS1R, Homo sapiens, UniProt Q969F8) | antagonist, FLIPR |  | 10 µM |  | inhibition | 31.3% |
| Nc1ncc(-c2nc(N3CCOCC3)nc(N3CCOCC3)n2)c(C(F)F)n1 | DCLK1 (Homo sapiens, UniProt O15075) | KINOMEscan |  | 10 µM |  | remaining binding | 86% |
| COc1ccc(Nc2nn3c(-c4ccccc4)ccnc3c2C(=O)Nc2ccc(Cl)cc2)cc1 | α-glucosidase | SDS-PAGE densitometry, item: 45 kDa band |  | 1 mg/mL | relative to: untreated enzyme, lower = more denaturation | band intensity | 87.2 a.u. |

For quick reference, copied from above:
| SMILES | target | assay | test system | conditions | how to read | measurement | result |
| --- | --- | --- | --- | --- | --- | --- | --- |
| Nc1ncnc2c1ncn2[C@H]1C[C@H](O)[C@@H](COP(=O)(O)OP(=O)(O)OP(=O)(O)O)O1 | Gag-Pol polyprotein, reverse transcriptase (gag-pol, Human immunodeficiency virus type 1 group M subtype B, UniProt P04585) | single nucleotide extension, substrate |  | wild type, T:A matched primer/template |  | Km | 0.0345 ± 0.00612 µM |
| CC(C)[C@@H](O)CC[C@@H](C)[C@H]1CC[C@H]2[C@@H]3CC=C4C[C@@H](O)CC[C@]4(C)[C@H]3CC[C@]12C | Glutamate NMDA receptor; GRIN1/GRIN2B (GRIN1/GRIN2B, Homo sapiens, UniProt Q05586+Q13224, L650A) | positive allosteric modulator, two-electrode voltage clamp | Xenopus oocytes expressing GluN2B-L650A | 10 µM, 0.02% cremophor, with: 100 µM glutamate and glycine | relative to: without compound | current response | 145 ± 8% |
